Measured values gathered from unrelated publications.
Each numbered part is a random draw from the data of one study; scales do not carry over between parts.

Study 1 — method: protein binding microarray; form: double-stranded DNA, one strand shown; sample: in vitro; concentration: not given; baseline: not given; direction: higher = stronger binding
Target: Histone acetyltransferase KAT6A, both winged helices, GST fusion (KAT6A, Homo sapiens, UniProt Q92794, residues 1-181)
Setting: 8-mer, flanks averaged, mean of 2 arrays, mostly near background
Target sequence (chain): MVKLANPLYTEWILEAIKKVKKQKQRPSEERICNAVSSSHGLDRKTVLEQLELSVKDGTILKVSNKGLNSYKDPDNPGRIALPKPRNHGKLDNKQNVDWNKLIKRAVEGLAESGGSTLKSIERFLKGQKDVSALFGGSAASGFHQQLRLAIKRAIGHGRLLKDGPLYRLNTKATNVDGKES
Sequence	E-score
ATTCAGTA	-0.0407
CGCGCACA	0.324
GATCGACA	-0.126

Study 2 — method: universal PBM; form: double-stranded DNA, one strand shown; sample: in vitro; concentration: not given; direction: higher = stronger binding
Target: Sal-like protein 4, full length isoform B (SALL4, Homo sapiens, UniProt Q9UJQ4-2, residues 1-616)
Setting: 8-mer, flanks averaged, mean of replicates
Construct (chain): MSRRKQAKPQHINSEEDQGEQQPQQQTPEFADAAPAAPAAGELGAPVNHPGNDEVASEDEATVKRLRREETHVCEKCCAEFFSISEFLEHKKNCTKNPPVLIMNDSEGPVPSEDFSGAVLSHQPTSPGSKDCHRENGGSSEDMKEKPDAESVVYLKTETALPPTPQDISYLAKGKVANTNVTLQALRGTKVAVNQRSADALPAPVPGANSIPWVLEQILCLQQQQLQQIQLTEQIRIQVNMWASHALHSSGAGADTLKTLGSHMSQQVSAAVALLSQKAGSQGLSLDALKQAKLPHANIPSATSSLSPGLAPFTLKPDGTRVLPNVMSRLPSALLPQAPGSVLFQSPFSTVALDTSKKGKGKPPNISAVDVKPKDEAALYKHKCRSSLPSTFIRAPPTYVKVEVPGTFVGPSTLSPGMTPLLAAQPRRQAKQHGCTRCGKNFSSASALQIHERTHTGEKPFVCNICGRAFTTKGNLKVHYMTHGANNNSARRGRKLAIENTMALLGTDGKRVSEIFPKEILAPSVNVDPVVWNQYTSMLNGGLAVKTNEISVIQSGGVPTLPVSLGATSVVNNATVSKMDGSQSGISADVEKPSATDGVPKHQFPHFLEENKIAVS
Sequence	E-score
GCTAGTAA	0.105
CGGCTGCA	-0.371
AAATGTCA	0.16

Single results of other studies
IRF7 S471D/S472D/S475D/S476D/S477D/S483D/S484D/S487D full length, phosphomimetic: Interferon regulatory factor 7, full length, phosphomimetic (IRF7, Homo sapiens, UniProt Q92985, residues 1-503, S471D/S472D/S475D/S476D/S477D/S483D/S484D/S487D)
Chain of UniProt Q92985 (whole entry, unmodified, looked up): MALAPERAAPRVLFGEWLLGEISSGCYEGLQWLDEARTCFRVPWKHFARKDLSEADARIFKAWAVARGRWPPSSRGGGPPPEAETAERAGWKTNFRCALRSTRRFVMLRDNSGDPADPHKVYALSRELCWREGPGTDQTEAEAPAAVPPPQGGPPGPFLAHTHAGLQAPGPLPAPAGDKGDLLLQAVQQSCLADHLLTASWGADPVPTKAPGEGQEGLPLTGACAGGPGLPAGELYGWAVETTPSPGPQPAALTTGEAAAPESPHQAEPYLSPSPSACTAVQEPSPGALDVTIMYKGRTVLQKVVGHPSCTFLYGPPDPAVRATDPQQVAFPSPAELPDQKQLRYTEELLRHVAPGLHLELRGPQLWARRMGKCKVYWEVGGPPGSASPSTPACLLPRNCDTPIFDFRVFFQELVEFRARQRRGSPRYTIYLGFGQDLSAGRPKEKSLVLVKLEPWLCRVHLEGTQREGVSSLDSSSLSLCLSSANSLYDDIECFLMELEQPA
Molecule	target	assay	system	setting	scale	endpoint	result
GCCTAGCACGACGATATCGGGACTGGTGACGTGCTAGTCTTGATTCGCTTGACGCTGCTG	IRF7 S471D/S472D/S475D/S476D/S477D/S483D/S484D/S487D full length, phosphomimetic	protein-binding microarray	double-stranded DNA, one strand shown, in vitro	2200 nM top, 60-bp whole probe, added: salmon DNA 0.4 mg/ml	baseline: random background probes, higher = stronger binding	fitted relative affinity	-0.231 z-score
PhoQ, residues 284 288 289 292 302 303 GLASVI	PhoP, residues 12 14 15 18 19 FWNTL (Escherichia coli, UniProt P23836)	Sort-seq, measured: YFP reporter	E. coli	PhoQ-PhoP variant library, added: 10 µM Mg2+	baseline: high Mg2+ state, higher = stronger signaling	fold induction	16.1
GCCTAGCACTCAGATTTCCTTCACCCACTGTGCTAGGTCTTGATTCGCTTGACGCTGCTG	Interferon regulatory factor 5, full length, phosphomimetic (IRF5, Homo sapiens, UniProt Q13568-2, residues 1-514, K96S/S451D/S453D/S456D/S462D)	protein-binding microarray	double-stranded DNA, one strand shown, in vitro	250 nM, 60-bp whole probe, added: salmon DNA 0.4 mg/ml	baseline: random background probes, higher = stronger binding	log fluorescence	0.822 z-score
GCCTAGCACAGCCGAACAGCAATCGGATGGTGCTAGGTCTTGATTCGCTTGACGCTGCTG	IRF7 S471D/S472D/S475D/S476D/S477D/S483D/S484D/S487D full length, phosphomimetic	protein-binding microarray	double-stranded DNA, one strand shown, in vitro	2200 nM top, 60-bp whole probe, added: salmon DNA 0.4 mg/ml	baseline: random background probes, higher = stronger binding	fitted relative affinity	-0.449 z-score

Repeated from above (study 1):
Sequence	E-score
ATTCAGTA	-0.0407
